{"data": "Experimental data from different studies", "note": "Parts stem from different laboratories: compare values within a part only. Substitutions count along the parent as printed.", "UniProt P11229, sequence (whole entry, looked up)": "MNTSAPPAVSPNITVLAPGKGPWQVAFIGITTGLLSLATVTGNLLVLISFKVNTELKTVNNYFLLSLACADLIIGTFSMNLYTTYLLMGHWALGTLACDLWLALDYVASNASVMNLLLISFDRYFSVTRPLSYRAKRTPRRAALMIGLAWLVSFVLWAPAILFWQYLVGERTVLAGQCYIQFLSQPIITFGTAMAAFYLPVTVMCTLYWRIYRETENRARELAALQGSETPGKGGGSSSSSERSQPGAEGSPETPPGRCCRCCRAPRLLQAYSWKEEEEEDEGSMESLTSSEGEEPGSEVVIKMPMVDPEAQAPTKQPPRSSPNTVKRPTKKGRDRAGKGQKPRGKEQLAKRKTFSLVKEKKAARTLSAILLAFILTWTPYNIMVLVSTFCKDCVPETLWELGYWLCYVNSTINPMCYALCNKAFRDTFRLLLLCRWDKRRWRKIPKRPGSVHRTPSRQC"}
{"data": "Block 1", "target": "HLA class I histocompatibility antigen, A alpha chain, allele A*80:01 (Homo sapiens, UniProt P04439)", "effect on": "peptide-MHC binding", "molecule type": "peptide", "reading": "direction not given"}
{"Sequence": "DFISMYFPW", "z-score of log IC50": 0.38}
{"Sequence": "APFARLLNL", "z-score of log IC50": 0.38}
{"Sequence": "GAWCYDYTV", "z-score of log IC50": 0.38}
{"Sequence": "FLAAECPFL", "z-score of log IC50": 0.38}
{"Sequence": "FWAWSVLRV", "z-score of log IC50": 0.38}
{"Sequence": "DEFLKVPEW", "z-score of log IC50": 0.38}
{"Sequence": "FSDLCNFLI", "z-score of log IC50": 0.38}
{"Sequence": "DLRPYGLIK", "z-score of log IC50": 0.38}
{"data": "Block 2", "target": "CCNF, cyclin fold, Cln2 fusion (human)", "method": "yeast growth competition, sequencing", "medium": "yeast", "notes": "strong parent motif", "reference": "not given", "reading": "higher = stronger binding", "starting sequence": "viral docking peptide; YKVKRRLVFGADD"}
{"Change": "YVVKRRLVFGADD [K2V]", "normalised enrichment score": 8.58}
{"Change": "YKVKRRLWFGADD [V8W]", "normalised enrichment score": 9.62}
{"Change": "YKVKRRLVMGADD [F9M]", "normalised enrichment score": 8.35}
{"Change": "YKVKRRPVFGADD [L7P]", "normalised enrichment score": 0.295}
{"Change": "YYVKRRLVFGADD [K2Y]", "normalised enrichment score": 8.82}
{"Change": "YKVKRRLQFGADD [V8Q]", "normalised enrichment score": 9.19}
{"Change": "YKVKRRLVFGAID [D12I]", "normalised enrichment score": 8.79}
{"Change": "YKVKRRLDFGADD [V8D]", "normalised enrichment score": 8.95}
{"data": "Further values, each from its own experiment", "concentration": "10 µM"}
{"SMILES": "CN1CC[C@@]23CCCC[C@@H]2[C@@H]1Cc1ccc(O)cc13.O=C(O)C(O)C(O)C(=O)O", "target or system": "Sarcocystis neurona", "assay": "parasite growth", "conditions": "second screen", "how to read": "reference: untreated", "quantity": "log2 fold change", "value": 0.47}
{"SMILES": "CCS(=O)(=O)c1cc2cc(C[C@@](O)(CC(C)(C)c3ccc(F)cc3C(N)=O)C(F)(F)F)[nH]c2cn1", "target or system": "Muscarinic acetylcholine receptor M1 (CHRM1, Homo sapiens, UniProt P11229)", "assay": "binding, radioligand binding", "quantity": "inhibition", "value": "-19.7%"}
{"SMILES": "Cl.O=C1[C@H]2CCCC[C@H]2C(=O)N1CCCCN1CCN(c2nsc3ccccc23)CC1", "target or system": "Sarcocystis neurona", "assay": "parasite growth", "conditions": "second screen", "how to read": "reference: untreated", "quantity": "log2 fold change", "value": -3.59}
{"note": "Some of these lines once more (block 1):"}
{"Sequence": "DFISMYFPW", "z-score of log IC50": 0.38}
{"Sequence": "APFARLLNL", "z-score of log IC50": 0.38}
